Measurements pooled from the literature.
Each numbered part is a random draw from the data of one study; scales do not carry over between parts. “And” joins repeats or separate records; there may be more than shown. ± marks the error that the study gave.
Chain of UniProt P10721 (whole entry, unmodified, looked up): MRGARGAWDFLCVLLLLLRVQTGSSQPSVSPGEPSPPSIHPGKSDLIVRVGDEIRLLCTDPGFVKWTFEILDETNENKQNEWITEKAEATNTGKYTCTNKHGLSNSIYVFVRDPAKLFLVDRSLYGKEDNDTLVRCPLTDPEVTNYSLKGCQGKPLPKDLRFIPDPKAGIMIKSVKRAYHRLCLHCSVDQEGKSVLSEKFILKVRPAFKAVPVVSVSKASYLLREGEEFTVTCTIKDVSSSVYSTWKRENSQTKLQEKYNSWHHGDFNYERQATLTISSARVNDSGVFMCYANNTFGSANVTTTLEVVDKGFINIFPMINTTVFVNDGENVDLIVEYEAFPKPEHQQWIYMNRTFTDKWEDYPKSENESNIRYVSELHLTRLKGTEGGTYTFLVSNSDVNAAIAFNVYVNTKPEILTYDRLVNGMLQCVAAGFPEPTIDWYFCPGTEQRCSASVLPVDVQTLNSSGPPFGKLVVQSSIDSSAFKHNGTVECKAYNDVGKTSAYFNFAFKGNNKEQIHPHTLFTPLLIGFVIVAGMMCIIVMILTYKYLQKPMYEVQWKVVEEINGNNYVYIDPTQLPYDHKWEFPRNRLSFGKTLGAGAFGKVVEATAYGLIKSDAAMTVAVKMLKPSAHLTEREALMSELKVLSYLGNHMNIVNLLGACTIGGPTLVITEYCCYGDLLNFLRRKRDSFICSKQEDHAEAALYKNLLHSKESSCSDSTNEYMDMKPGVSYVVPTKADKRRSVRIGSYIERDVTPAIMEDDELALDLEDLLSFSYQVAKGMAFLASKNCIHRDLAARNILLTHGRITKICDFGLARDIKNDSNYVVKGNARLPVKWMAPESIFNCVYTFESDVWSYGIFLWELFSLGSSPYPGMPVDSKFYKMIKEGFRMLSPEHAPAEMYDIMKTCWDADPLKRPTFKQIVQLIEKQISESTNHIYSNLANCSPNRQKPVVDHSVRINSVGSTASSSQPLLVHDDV
Chain of UniProt O00329 (whole entry, looked up): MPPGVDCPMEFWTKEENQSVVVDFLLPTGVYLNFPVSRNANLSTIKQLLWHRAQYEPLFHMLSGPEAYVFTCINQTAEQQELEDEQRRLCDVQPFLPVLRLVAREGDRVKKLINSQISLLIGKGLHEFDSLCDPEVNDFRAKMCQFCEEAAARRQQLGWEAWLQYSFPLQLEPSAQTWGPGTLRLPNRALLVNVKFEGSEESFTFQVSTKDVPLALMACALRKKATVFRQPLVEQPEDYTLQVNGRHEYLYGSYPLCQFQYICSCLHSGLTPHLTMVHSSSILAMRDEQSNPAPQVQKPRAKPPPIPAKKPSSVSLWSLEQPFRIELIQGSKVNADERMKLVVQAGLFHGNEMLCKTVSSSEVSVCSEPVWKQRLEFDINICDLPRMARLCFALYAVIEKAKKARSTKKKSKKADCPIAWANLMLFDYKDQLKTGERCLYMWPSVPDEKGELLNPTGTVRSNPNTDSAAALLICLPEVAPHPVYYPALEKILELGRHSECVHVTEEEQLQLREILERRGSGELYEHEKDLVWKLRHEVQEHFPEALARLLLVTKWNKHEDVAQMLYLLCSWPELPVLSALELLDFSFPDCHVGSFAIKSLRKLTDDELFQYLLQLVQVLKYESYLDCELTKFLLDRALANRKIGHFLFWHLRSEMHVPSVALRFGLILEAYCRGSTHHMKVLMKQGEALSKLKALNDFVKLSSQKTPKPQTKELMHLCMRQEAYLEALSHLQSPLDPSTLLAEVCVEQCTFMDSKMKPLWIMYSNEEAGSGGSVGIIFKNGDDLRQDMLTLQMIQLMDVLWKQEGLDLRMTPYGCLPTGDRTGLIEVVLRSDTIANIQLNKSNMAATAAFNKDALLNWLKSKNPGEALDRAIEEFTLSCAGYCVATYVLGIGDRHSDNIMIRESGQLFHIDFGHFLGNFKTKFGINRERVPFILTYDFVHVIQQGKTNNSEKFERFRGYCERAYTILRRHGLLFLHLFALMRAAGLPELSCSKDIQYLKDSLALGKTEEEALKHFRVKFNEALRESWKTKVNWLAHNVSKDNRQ
Chain of UniProt P51813 (whole entry, looked up): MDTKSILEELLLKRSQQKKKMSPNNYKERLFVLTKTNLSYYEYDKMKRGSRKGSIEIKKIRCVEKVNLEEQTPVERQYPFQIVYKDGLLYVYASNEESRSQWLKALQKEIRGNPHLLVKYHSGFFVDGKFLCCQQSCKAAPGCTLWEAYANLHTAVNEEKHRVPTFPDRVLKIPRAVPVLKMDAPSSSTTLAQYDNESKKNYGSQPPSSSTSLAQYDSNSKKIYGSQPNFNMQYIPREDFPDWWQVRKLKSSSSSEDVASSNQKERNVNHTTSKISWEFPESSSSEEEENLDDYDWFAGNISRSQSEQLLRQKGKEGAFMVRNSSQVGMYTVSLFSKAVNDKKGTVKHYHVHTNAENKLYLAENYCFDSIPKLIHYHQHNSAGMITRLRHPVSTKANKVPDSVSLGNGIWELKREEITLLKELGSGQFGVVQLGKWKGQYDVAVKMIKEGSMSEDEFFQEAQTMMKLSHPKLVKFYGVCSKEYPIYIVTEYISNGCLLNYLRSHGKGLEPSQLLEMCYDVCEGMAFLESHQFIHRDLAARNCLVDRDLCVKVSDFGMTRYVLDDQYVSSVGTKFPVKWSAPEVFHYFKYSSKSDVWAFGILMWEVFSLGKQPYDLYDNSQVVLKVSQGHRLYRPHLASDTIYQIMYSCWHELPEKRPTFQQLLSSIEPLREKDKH
Chain of UniProt Q13546 (whole entry, looked up): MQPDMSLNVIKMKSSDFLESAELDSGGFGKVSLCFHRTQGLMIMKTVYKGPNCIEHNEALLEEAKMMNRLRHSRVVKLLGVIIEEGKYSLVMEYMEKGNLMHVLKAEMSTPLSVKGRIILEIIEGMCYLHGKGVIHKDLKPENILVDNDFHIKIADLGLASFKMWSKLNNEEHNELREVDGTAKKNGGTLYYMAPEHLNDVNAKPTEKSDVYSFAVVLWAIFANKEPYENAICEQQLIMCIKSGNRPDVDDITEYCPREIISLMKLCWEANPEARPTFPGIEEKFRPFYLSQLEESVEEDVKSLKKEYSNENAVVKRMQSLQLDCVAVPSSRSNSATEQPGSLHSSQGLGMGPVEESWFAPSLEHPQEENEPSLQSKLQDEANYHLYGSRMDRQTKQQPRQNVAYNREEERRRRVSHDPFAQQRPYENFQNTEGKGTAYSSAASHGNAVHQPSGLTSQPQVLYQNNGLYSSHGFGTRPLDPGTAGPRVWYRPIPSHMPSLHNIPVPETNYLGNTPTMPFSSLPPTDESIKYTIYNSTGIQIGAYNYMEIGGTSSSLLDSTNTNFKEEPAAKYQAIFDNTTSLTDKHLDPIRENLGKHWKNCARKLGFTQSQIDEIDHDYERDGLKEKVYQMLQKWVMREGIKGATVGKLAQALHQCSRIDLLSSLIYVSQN
Chain of UniProt P04049 (whole entry, looked up): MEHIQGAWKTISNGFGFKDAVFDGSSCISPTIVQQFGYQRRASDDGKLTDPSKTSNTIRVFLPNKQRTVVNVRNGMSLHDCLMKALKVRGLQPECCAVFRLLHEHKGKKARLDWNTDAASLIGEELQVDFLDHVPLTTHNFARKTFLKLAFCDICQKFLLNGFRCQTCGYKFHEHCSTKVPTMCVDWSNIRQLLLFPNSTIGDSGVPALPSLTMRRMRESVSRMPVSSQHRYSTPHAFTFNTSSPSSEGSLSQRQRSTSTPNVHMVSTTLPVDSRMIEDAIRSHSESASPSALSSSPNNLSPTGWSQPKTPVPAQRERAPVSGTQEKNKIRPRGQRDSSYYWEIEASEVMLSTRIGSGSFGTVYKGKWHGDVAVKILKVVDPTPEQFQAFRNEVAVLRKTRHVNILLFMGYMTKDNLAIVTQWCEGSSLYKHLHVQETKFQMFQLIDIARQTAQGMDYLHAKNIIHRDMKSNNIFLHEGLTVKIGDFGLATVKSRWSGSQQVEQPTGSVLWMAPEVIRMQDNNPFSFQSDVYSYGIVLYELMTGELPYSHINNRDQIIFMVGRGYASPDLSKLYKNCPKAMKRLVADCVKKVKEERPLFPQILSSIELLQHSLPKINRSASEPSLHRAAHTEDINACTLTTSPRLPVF

Set 1
Structure (SMILES): O=S(=O)(NC1CCC(c2cc(F)ccc2F)(S(=O)(=O)c2ccc(Cl)cc2)CC1)C(F)(F)F (stereo not drawn)
Method: competition with immobilised ligand
Tested at: 1 µM
Measurement: remaining binding
PLK2 (Homo sapiens, UniProt Q9NYY3); cell-free assay: 100%
EPHB1 (Homo sapiens, UniProt P54762); cell-free assay: 100%
ERBB3 (Homo sapiens, UniProt P21860); cell-free assay: 93%
BMX (Homo sapiens, UniProt P51813); cell-free assay: 93%
CILK1 (Homo sapiens, UniProt Q9UPZ9); binding: 85%
EPHA5 (Homo sapiens, UniProt P54756); cell-free assay: 100%
MYLK (Homo sapiens, UniProt Q15746); cell-free assay: 100%
MAP3K11 (Homo sapiens, UniProt Q16584); cell-free assay: 100%
TNIK (Homo sapiens, UniProt Q9UKE5); cell-free assay: 82%
HIPK1 (Homo sapiens, UniProt Q86Z02); cell-free assay: 100%
EGFR (Homo sapiens, UniProt P00533, L861Q); cell-free assay: 100%
RAF1 (Homo sapiens, UniProt P04049); cell-free assay: 100%
DCLK3 (Homo sapiens, UniProt Q9C098); cell-free assay: 100%
PIKFYVE (Homo sapiens, UniProt Q9Y2I7); cell-free assay: 60%
RIPK1 (Homo sapiens, UniProt Q13546); cell-free assay: 100%
KIT (Homo sapiens, UniProt P10721, D816V); cell-free assay: 92%
ROCK1 (Homo sapiens, UniProt Q13464); cell-free assay: 84%
MAP4K5 (Homo sapiens, UniProt Q9Y4K4); cell-free assay: 69%
STK3 (Homo sapiens, UniProt Q13188); cell-free assay: 100%
PIK3CD (Homo sapiens, UniProt O00329); cell-free assay: 100%
YES1 (Homo sapiens, UniProt P07947); cell-free assay: 89%
FGFR2 (Homo sapiens, UniProt P21802); cell-free assay: 84%
Tyrosine-protein kinase ABL1, phosphorylated (ABL1, Homo sapiens, UniProt P00519, M351T); cell-free assay: 100%
DDR1 (Homo sapiens, UniProt Q08345); cell-free assay: 100%
KIT (Homo sapiens, UniProt P10721); cell-free assay: 100%

Set 2
Target: Calcium/calmodulin-dependent protein kinase type II subunit alpha (CAMK2A, Homo sapiens, UniProt Q9UQM7)
Chain of UniProt Q9UQM7 (whole entry, looked up): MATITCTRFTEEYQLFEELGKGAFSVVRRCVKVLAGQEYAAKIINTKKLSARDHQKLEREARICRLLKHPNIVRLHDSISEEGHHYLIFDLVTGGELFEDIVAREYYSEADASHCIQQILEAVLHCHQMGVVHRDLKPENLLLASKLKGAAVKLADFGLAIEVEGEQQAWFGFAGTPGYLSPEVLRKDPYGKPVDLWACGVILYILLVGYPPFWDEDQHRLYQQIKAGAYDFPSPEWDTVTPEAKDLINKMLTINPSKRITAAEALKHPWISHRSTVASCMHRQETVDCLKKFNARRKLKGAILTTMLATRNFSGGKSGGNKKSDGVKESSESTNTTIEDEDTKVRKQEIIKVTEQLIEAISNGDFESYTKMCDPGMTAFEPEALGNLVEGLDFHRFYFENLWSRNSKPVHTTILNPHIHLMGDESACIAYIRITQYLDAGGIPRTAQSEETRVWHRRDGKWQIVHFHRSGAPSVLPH
Observed: enzyme activity
Mode: inhibitor
Tested at: 10 µM
Measurement: inhibition
NCC(O)c1ccc(O)c(O)c1 (racemic): -5%
COc1ccc2cc1Oc1ccc(cc1)C[C@H]1c3cc(c(OC)cc3CCN1C)Oc1c(O)c(OC)cc3c1[C@@H](C2)N(C)CC3: -11%
Cc1ncc([N+](=O)[O-])n1C[C@H](O)CCl: -4%
COC(=O)C(O)CC(C)C (stereo not drawn): 8%
CC(C)=C[C@H]1C[C@](C)(O)[C@@H]2[C@H]3CC[C@@H]4[C@@]5(C)CC[C@H](O[C@@H]6OC[C@H](O)[C@H](O[C@@H]7O[C@H](CO)[C@@H](O)[C@H](O)[C@H]7O)[C@H]6O[C@@H]6O[C@@H](CO)[C@H](O)[C@H]6O)C(C)(C)[C@@H]5CC[C@@]4(C)[C@@]34CO[C@@]2(C4)O1: -7%
CC(=O)OC/C=C(/C)CCC=C(C)C: -10%
CC(C)(O)[C@@H]1CC[C@](C)([C@H]2[C@@H](O)C[C@@]3(C)[C@@H]4C[C@H](O)[C@H]5C(C)(C)[C@@H](O)CC[C@@]56C[C@@]46CC[C@]23C)O1: 24%
CC(=O)OC/C=C/c1ccccc1: -19%
CCN(CCCc1ccccc1)CCCc1ccccc1: -9%

Set 3
Compound: COc1cc(C(=O)N2CCC(N3CCN(C)CC3)CC2)ccc1Nc1ncc2c(n1)N(C)c1ccccc1C(=O)N2C
Measurement: inhibition
MAP2K6 (human); probe labelling, KiNativ ATP probe; human PBMC lysate; concentration not given, LYS2 labelled site: -1%
human PBMC; probe labeling, inhibitor, KiNativ profiling, measured: ALYATkTLR; cell lysate; concentration not given, LYS1 site, added: ATP acyl-phosphate probe: -5%
SLK; 1 µM: -16.5%
mouse MAP3K5/MAP3K6/MAP3K7; probe labelling, KiNativ ATP probe; mouse brain lysate; 1 µM, LYS1 site IAIkEIPER: 1.8%
MST4 (human); probe labelling, KiNativ ATP probe; human PBMC lysate; concentration not given, LYS1 labelled site: -10%
WNK1/WNK2 (mouse); probe labelling, inhibitor, KiNativ ActivX ADP probe; mouse brain lysate; 0.1 µM, ATP loop peptide GSFkTVYK: 7.8%
mouse MER and TYRO3; probe labelling, KiNativ ATP probe; mouse brain lysate; 0.1 µM: 3.1%
mouse PKCι and PKCζ; probe labelling, KiNativ ADP probe; mouse brain lysate; 1 µM, LYS1 site IYAMkVVK: -11.4%
PKD2 human; KiNativ profiling; human PBMC; 0.1 µM, LYS1 site, added: ATP acyl phosphate probe: 10.5%

Set 4
Target: Eukaryotic initiation factor 4A-III (Homo sapiens, UniProt P38919)
Chain of UniProt P38919 (whole entry, looked up): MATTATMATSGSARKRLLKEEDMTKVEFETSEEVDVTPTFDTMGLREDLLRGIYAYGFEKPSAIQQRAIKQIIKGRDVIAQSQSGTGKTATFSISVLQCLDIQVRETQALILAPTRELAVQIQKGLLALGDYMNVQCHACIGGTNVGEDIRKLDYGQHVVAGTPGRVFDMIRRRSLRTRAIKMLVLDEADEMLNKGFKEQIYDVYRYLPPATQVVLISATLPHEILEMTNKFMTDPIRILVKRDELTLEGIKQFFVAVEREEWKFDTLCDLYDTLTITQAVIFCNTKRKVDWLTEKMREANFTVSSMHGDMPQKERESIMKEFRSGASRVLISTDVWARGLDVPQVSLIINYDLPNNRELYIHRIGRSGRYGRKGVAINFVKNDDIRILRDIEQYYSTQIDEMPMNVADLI
Observed: RNA clamping
Method: fluorescence polarization
Tested at: concentration not given
Added: FAM-labelled poly r(AG)8 RNA
Measurement: fluorescence polarization change
COC(=O)[C@H]1C(=O)[C@@]2(Nc3ccccc3)c3c(OC)cc(OC)cc3O[C@@]2(c2ccc(OC)cc2)[C@@H]1c1ccccc1: 2.3 mP
COC(=O)[C@H]1C(=O)[C@@]2(NN(C)C)c3c(OC)cc(OC)cc3O[C@@]2(c2ccc(OC)cc2)[C@@H]1c1ccccc1: 6 mP
COC(=O)[C@@H]1[C@@H](c2ccccc2)[C@]2(c3ccc(OC)cc3)Oc3cc(OC)cc(OC)c3[C@@]23NC(C2CCN(C(=O)OC(C)(C)C)CC2)=N[C@@]13O: 13.6 mP
COc1ccc([C@@]23Oc4cc(OC)cc(OC)c4[C@]2(O)c2nc(N4CCOCC4)[nH]c(=O)c2[C@H]3c2ccccc2)cc1: 33.7 mP and 33 mP
COC(=O)[C@H]1[C@@H](O)[C@@]2(O)c3c(OC)cccc3N(C)[C@@]2(c2ccc(OC)cc2)[C@@H]1c1ccccc1: -4.4 mP
COC(=O)/C=C/Cn1c(-c2ccccc2)nc2c(c1=O)[C@@H](c1ccccc1)[C@]1(c3ccc(OC)cc3)Oc3cc(OC)cc(OC)c3[C@]21O: 3.7 mP
COc1ccc([C@@]23Oc4cc(OC)cc(OC)c4[C@]2(O)c2nc(-c4ccccn4)[nH]c(=O)c2[C@H]3c2ccccc2)cc1: 12.1 mP
COc1ccc([C@@]23Oc4cc(OC)cc(OC)c4[C@]2(OC)c2nc(-c4ccccc4)n(C)c(=O)c2[C@H]3c2ccccc2)cc1: 0.5 mP
COc1ccc([C@@]23Oc4cc(OC)cc(OC)c4[C@@]24NC(C)=N[C@@]4(O)[C@H](C(C)=O)[C@H]3c2ccccc2)cc1: 25.5 mP
COc1cc(F)cc2c1[C@]1(O)[C@H](O)[C@H](C#N)[C@@H](c3ccccc3)[C@]1(c1ccc(Br)cc1)O2: 25.6 mP

Set 5
Target: Bromodomain-containing protein 4, BD1 (BRD4, Homo sapiens, UniProt O60885)
Mode: binding
Method: isothermal titration calorimetry
Temperature: 15 °C
Measurement: ΔH
CC(C)CCN1c2nc(Nc3cc(F)c(O)c(F)c3)ncc2N(C)C(=O)C1C (stereo not drawn): -10.9 ± 0.02 kcal/mol
Cc1cnc(Nc2ccc(OCCN3CCCC3)cc2)nc1Nc1cccc(S(=O)(=O)NC(C)(C)C)c1: -5.28 ± 0.03 kcal/mol
CC[C@@H]1C(=O)N(C)c2cnc(Nc3ccc(C(=O)N[C@H]4CC[C@H](N5CCN(CC6CC6)CC5)CC4)cc3OC)nc2N1C(C)C: -8.5 ± 0.04 kcal/mol
Cc1cnc(Nc2ccc(N3CCN(C)CC3)cc2)nc1Nc1cccc(S(=O)(=O)NC(C)(C)C)c1: -7.15 ± 0.01 kcal/mol

For quick reference, copied from above (set 1):
EPHA5 (Homo sapiens, UniProt P54756); cell-free assay: 100%
MYLK (Homo sapiens, UniProt Q15746); cell-free assay: 100%
MAP3K11 (Homo sapiens, UniProt Q16584); cell-free assay: 100%
TNIK (Homo sapiens, UniProt Q9UKE5); cell-free assay: 82%
HIPK1 (Homo sapiens, UniProt Q86Z02); cell-free assay: 100%
EGFR (Homo sapiens, UniProt P00533, L861Q); cell-free assay: 100%
RAF1 (Homo sapiens, UniProt P04049); cell-free assay: 100%
DCLK3 (Homo sapiens, UniProt Q9C098); cell-free assay: 100%
